Experimental data collected from several papers.
Compare with care: the assays were run in different laboratories. Values joined by “and” are separate records of one study, mostly repeats; a detail may differ. ± gives the spread as reported. Values after ≈ are worked out from the molar mass of the structure shown.

| SMILES | tested on | test | system | conditions | how to read | measurement | value |
| --- | --- | --- | --- | --- | --- | --- | --- |
| CCc1ccc(C(=O)NC(=O)c2ccccc2O)cc1 | Plasmodium yoelii |  | 17XL | 384-well |  | IC50 | 113 ± 53 nM |
| CCc1nn(C)c2nc(-c3ccc(C(=O)O)cc3)nc(NCc3ccc(F)cc3)c12 | Cryptosporidium parvum |  | HCT-8 | EC90, 24 h | relative to: DMSO control | parasite number | 47.9% and 47.2% and 41.9% and 44% |
| COC1=CC(c2ccc[nH]2)=N/C1=C\c1[nH]c(Cc2ccc(OC(F)(F)F)cc2)cc1Cc1ccc(OC(F)(F)F)cc1 | Plasmodium yoelii | parasitaemia | mouse | 4-day treatment, parasitaemia day 5 |  | ED90 | 2.82 mg/kg/day |
| CCOc1ccc2cc(-c3nn(CC4CCN(C)CC4)c4ncnc(N)c34)ccc2c1 | Theileria equi | hydroethidine flow cytometry | USDA Florida | 12 µM, 72 h |  | % of maximum PPE | 10.2% |
| COc1ccnc(C(=O)NC(CO)C(=O)O)c1O (racemic) | Pseudokirchneriella subcapitata | growth rate |  | 72 h, static test |  | EC50 | 4.4 µg/mL |
| COC1=CC(c2ccc[nH]2)=N/C1=C\c1[nH]c(C)cc1Cc1ccc(OC(F)(F)F)cc1.Cl | Plasmodium yoelii |  | CF1 mice | oral, 10 mg/kg daily for 4 days, day 5 | relative to: vehicle | parasitaemia reduction | 100% |
| N#Cc1cc(-c2nc3ccccc3s2)c(=O)n(NS(=O)(=O)c2ccccc2)c1N | herpes simplex virus 1 | viral replication, plaque | Vero | non-toxic dose, mean of three titres |  | plaque reduction | 70% |
| O=C(O)CNC(=O)C(=O)O | HBL-1 |  |  | 1 µM, 120 h |  | viability | 98.1% |
| Cc1ccc2[nH]c(C)c(Br)c(=O)c2c1 | Plasmodium yoelii |  | 17XL | 384-well |  | IC50 | 2240 ± 355 nM |
| CN[C@H](CC(C)C)C(=O)N[C@H]1C(=O)N[C@@H](CC(N)=O)C(=O)N[C@H]2C(=O)N[C@H]3C(=O)N[C@H](C(=O)N[C@H](C(=O)O)c4cc(O)cc(O)c4-c4cc3ccc4O)[C@H](O)c3ccc(c(Cl)c3)Oc3cc2cc(c3O[C@@H]2O[C@H](CO)[C@@H](O)[C@H](O)[C@H]2O[C@H]2C[C@](C)(N)[C@H](O)[C@H](C)O2)Oc2ccc(cc2Cl)[C@H]1O | Streptococcus salivarius | broth microdilution | clinical isolate |  |  | MIC range | 0.25 µg/mL (≈ 0.173 µM) |
| Oc1cc(O)cc(/C=C/c2ccc(O)c(O)c2)c1 | HBL-1 |  |  | 0.1 µM, 120 h |  | viability | 122% |
| O=c1c2c([nH]c3ccc(Oc4ccc(OC(F)(F)F)cc4)cc13)CCCC2 | Plasmodium yoelii | antimalarial activity | CF1 mouse | oral, once daily for 4 days |  | ED50 | 6.8 mg/kg |
| CSc1ccc(OCc2ncc([N+](=O)[O-])n2C)cc1 | Trichomonas gallinae | CCK-8 |  | 20 µM, 24 h |  | inhibition | > 70% and 98.7% |
| O=C(/C=C\n1cnc(-c2cc(C(F)(F)F)cc(C(F)(F)F)c2)n1)NNc1ccccn1 | herpes simplex virus 1 | viral replication | K26, GFP-expressing, 3D bioprinted skin, submerged |  |  | IC50 | 350 nM |
| Cc1ncc([N+](=O)[O-])n1CCO | Trichomonas gallinae | CCK-8 | trophozoites | 24 h |  | IC50 | 18600 nM |
| Cc1cc(Nc2ccc(S(F)(F)(F)(F)F)cc2)n2nc(C(C)(F)F)nc2n1 | Plasmodium falciparum | microscopy | P. falciparum malaria patients | oral, 250 mg |  | PC50 parasite clearance time mean | 19 h |
| Nc1nc(-c2ccccc2)nc2[nH]nc(Nc3ccc(C(F)(F)F)cc3)c12 | coxsackievirus B3 |  | 31-1-93, NMRI mice, CVB3 chronic myocarditis | oral, 100 mg/kg twice daily, day 4, dosed days 0 to 6, score scale 0 to 7 | direction not given | clinical score | 0.4 |
| COC(=O)[C@H](Cc1c[nH]c2ccccc12)NCc1cc2ccccc2nc1SC | Pseudomonas aeruginosa |  |  | 4 µg/mL, together with: pentamidine 100 µM | relative to: control | growth | 71.9% |
| Cc1cc(=O)c(-c2ccc(OCc3ccc(OC(F)(F)F)cc3)cc2)c(C)[nH]1 | Plasmodium yoelii |  | 17XL | 384-well |  | IC50 | 710 ± 258 nM |
| N=C(N)c1ccc(OCCCCCOc2ccc(C(=N)N)cc2)cc1 | Escherichia coli | checkerboard | mcr-2 polymyxin-resistant | concentration not given, 20 h, together with: rifampicin |  | MIC of compound in combination | 50 µg/mL |
| COC(=O)N[C@H](C(=O)N1CCC[C@H]1c1ncc(-c2ccc(-c3ccc(-c4cnc([C@@H]5CCCN5C(=O)[C@@H](NC(=O)OC)C(C)C)[nH]4)cc3)cc2)[nH]1)C(C)C | Coxsackievirus A21 | cell protection | MRC5 |  |  | EC50 | > 29000 nM |
| CCOc1ccc2cc(-c3nn(CC4CCNCC4)c4ncnc(N)c34)ccc2c1 | Theileria equi | hydroethidine flow cytometry | USDA Florida | 9 µM, 72 h |  | % of maximum PPE | 8.69% |
| CCOC1=CC(c2ccc[nH]2)=N/C1=C\c1cc(Cc2ccc(Cl)cc2)c(C)[nH]1.Cl | Plasmodium yoelii | parasitaemia | mouse | 4-day treatment, parasitaemia day 5 |  | ED90 | 3.07 mg/kg/day |
| Cc1cc(=O)c(-c2ccc(Oc3cccc(OC(F)(F)F)c3)cc2)c(C)[nH]1 | Plasmodium yoelii |  | 17XL | 384-well |  | IC50 | 450 ± 215 nM |

| SMILES | tested on | test | system | conditions | how to read | measurement | value |
| --- | --- | --- | --- | --- | --- | --- | --- |
| Nc1cc(Cl)ccc1C(=O)NCCCCNc1ccnc2cc(Cl)ccc12 | Chromobacterium violaceum | violacein production | ATCC 31532 | 400 µM, quorum sensing reporter |  | inhibition | 34.9% |
| COC[C@H]1O[C@@H]2O[C@H]3[C@H](OC)[C@@H](OC)[C@@H](O[C@H]4[C@H](OC)[C@@H](OC)[C@@H](O[C@H]5[C@H](OC)[C@@H](OC)[C@@H](O[C@H]6[C@H](OC)[C@@H](OC)[C@@H](O[C@H]7[C@H](OC)[C@@H](OC)[C@@H](O[C@H]8[C@H](OC)[C@@H](OC)[C@@H](O[C@H]1[C@H](OC)[C@H]2OC)O[C@@H]8COC)O[C@@H]7COC)O[C@@H]6COC)O[C@@H]5COC)O[C@@H]4COC)O[C@@H]3COC | Escherichia coli | LuxR reporter, agonist | DH5α sensor strain | 10 µM |  | bioluminescence | 812 ± 29 RLU |
| CC(C)n1ncc2c(C(=O)NCC3(C)CNC3)cc(C3CC3)nc21 | Enterovirus D68 | cytopathic effect | RD, US/MO/14-18949 | 5000 nM |  | cell protection | 95.1% and 99.5% and 94.5% |
| Cc1[nH]c(/C=C2\N=C(c3ccc[nH]3)C=C2OCc2ccccc2)cc1Cc1ccc(OC(F)(F)F)cc1 | Plasmodium yoelii |  | CF1 mouse | oral, 80 mg/kg single dose, day 5 |  | parasitaemia reduction | 100% |
| Oc1c(Br)cc(Br)c2cccnc12 | Trichomonas gallinae | CCK-8 |  | 20 µM, 24 h |  | inhibition | 51% |
| Cc1[nH]c(/C=C2\N=C(c3ccc[nH]3)C=C2OC(C)C)cc1Cc1ccc(Cl)cc1.Cl | Plasmodium yoelii |  | CF1 mice | oral, 25 mg/kg daily for 4 days, day 5 | relative to: vehicle | parasitaemia reduction | 100% |
| CC(=O)NC[C@H]1CN(c2ccc(N3CCOCC3)c(F)c2)C(=O)O1 | Staphylococcus epidermidis |  | methicillin-resistant, 10 isolates | serum 50% |  | MIC50 | 2 µg/mL (≈ 5.93 µM) |
| Cc1ccc(S(=O)(=O)Nn2c(N)c(C#N)cc(-c3nc4ccccc4s3)c2=O)cc1 | coxsackievirus B4 | viral replication, plaque | BGM | non-toxic dose, mean of three titres |  | plaque reduction | 10% |
| COc1ccc(-c2cc(-c3ccc(S(C)(=O)=O)cc3)cnc2N)cn1 | Plasmodium yoelii |  | 17XL | 384-well |  | IC50 | > 20000 nM |
| CCOc1ccc2cc(-c3nn(CC4CCN(C)CC4)c4ncnc(N)c34)ccc2n1 | Theileria equi | hydroethidine flow cytometry | USDA Florida | 9 µM, 72 h |  | % of maximum PPE | 24.6% |
| C=CC[C@@H]1c2ccc(OC)c(OC)c2CN2CCc3cc4c(cc3[C@H]12)OCO4 | Staphylococcus aureus |  | P2rx7+/+ mice, skin wound infection | dose not given, day 3 | relative to: day 0 | relative wound size | 0.81 and 0.41 and 0.57 and 0.4 and 0.84 |
| O=C(Nc1cccc(C2=NCCN2)c1)Nc1cccc(C2=NCCN2)c1 | Theileria equi | parasite growth, flow cytometry | horse erythrocytes, USDA Florida strain | 0.086 µM, 72 h |  | inhibition | 12.5% |
| CNC(C)C1CCC(N)C(OC2C(N)CC(N)C(OC3OCC(C)(O)C(NC)C3O)C2O)O1 (stereo not drawn) | Pseudomonas aeruginosa |  | clinical isolate RKI-No_479/15 |  |  | MIC | 4 µg/mL (≈ 8.38 µM) |
| N=C(N)c1ccc(OCc2ccc(Br)cc2COc2ccc(C(=N)N)cc2)cc1 | Escherichia coli | checkerboard | mcr-2 polymyxin-resistant | unit not given, together with: rifampicin | lower = stronger synergy | FICI | 0.063 |
| O=c1cccc(O)c(O)c1O | herpes simplex virus 1 | viral replication |  | 1 µM |  | reduction in viral titre | -0.14 log10 |
| CCOC(=O)c1cn(CC)c2cc(OCc3ccccc3)ccc2c1=O | Plasmodium yoelii |  | 17XL | 384-well |  | IC50 | 1590 ± 912 nM |
| O=[N+]([O-])c1ccc2[nH]c(CNCC34CC5CC(CC(C5)C3)C4)nc2c1 | Streptococcus pneumoniae |  | 31 clinical strains |  |  | MIC90 | 4 µg/mL (≈ 11.7 µM) |
| CC(Cl)=CCc1c(C)[nH]c2c(ccc3ccccc32)c1=O | Plasmodium yoelii |  | 17XL | 384-well |  | IC50 | 554 ± 208 nM |
| COC1=CC(c2ccc[nH]2)=N/C1=C\c1cc(Cc2ccc(OC(F)(F)F)cc2)c(C)[nH]1.Cl | Plasmodium yoelii | parasitaemia | mouse | 4-day treatment, parasitaemia day 5 |  | ED50 | 2.1 mg/kg/day |
| CN[C@H](CC(C)C)C(=O)N[C@H]1C(=O)N[C@@H](CC(N)=O)C(=O)N[C@H]2C(=O)N[C@H]3C(=O)N[C@H](C(=O)N[C@H](C(=O)O)c4cc(O)cc(O)c4-c4cc3ccc4O)[C@H](O)c3ccc(c(Cl)c3)Oc3cc2cc(c3O[C@@H]2O[C@H](CO)[C@@H](O)[C@H](O)[C@H]2O[C@H]2C[C@](C)(N)[C@H](O)[C@H](C)O2)Oc2ccc(cc2Cl)[C@H]1O | Staphylococcus epidermidis |  | MRSE | 10 isolates |  | MIC50 | 0.5 µg/mL (≈ 0.345 µM) |
| CC1(C)S[C@@H]2[C@H](NC(=O)[C@H](N)c3ccccc3)C(=O)N2[C@H]1C(=O)O | Pseudomonas aeruginosa |  | clinical isolate RKI-No_615/15 |  |  | MIC | > 16 µg/mL |
| Nc1ccccc1C(=O)NCCCCNc1ccnc2ccccc12 | Chromobacterium violaceum | violacein production | ATCC 31532 | 10 µM, quorum sensing reporter |  | inhibition | 22.1% |
| N#Cc1ccc(N[C@@H](CC2CCCCC2)C(=O)N[C@@H]2CCCc3ccccc32)c2ccccc12 | Plasmodium yoelii |  | 17XL | 384-well |  | IC50 | > 20000 nM |
| COC(=O)[C@H](Cc1c[nH]c2ccccc12)NCc1cc2ccccc2nc1OC | Pseudomonas aeruginosa |  |  | 16 µg/mL, together with: pentamidine 50 µM | relative to: control | growth | 96.6% |
